{"data": "Results pooled from the literature", "OPRK1": "Kappa-type opioid receptor (OPRK1, Homo sapiens, UniProt P41145)", "agrC": "Receptor-histidine kinase AgrC (agrC, Staphylococcus aureus, UniProt O07911)", "note": "Each line is one published result; not all experiments were run side by side. Several values in a cell are separate wells, animals, samples, runs or records. Numbers after ± are the reported error."}
{"Structure (SMILES)": "CC[C@H](C)[C@H](NC(=O)[C@H](CO)NC(=O)[C@H](CCC(=O)O)NC(=O)[C@H](CC(C)C)NC(=O)[C@H](CCC(N)=O)NC(=O)[C@H](CCC(=O)O)NC(=O)[C@H](CC(C)C)NC(=O)CNC(=O)[C@H](CO)NC(=O)[C@@H]1CSC(CC(=O)NCCCCCC(=O)N2CCN(CCCOc3cc(C(N)=O)cc4nc(NC(=O)c5cc(C)nn5CC)n(C/C=C/Cn5c(NC(=O)c6cc(C)nn6CC)nc6cc(C(N)=O)cc(OC)c65)c34)CC2)C(=O)N1)C(=O)N[C@H](C(=O)N[C@@H](CC(N)=O)C(=O)N[C@@H](Cc1ccccc1)C(=O)N[C@@H](CCC(=O)O)C(=O)N[C@@H](CCCCN)C(=O)N[C@@H](CC(C)C)C(=O)O)[C@@H](C)CC (some centres unmarked)", "target": "Sting1 (Mus musculus, UniProt Q3TBT3)", "assay": "IFN-beta secretion, agonist, ELISA", "system": "dendritic cells, bone marrow-derived, mouse", "conditions": "24 h, peptide conjugate, carrier-free", "EC50": "981 ± 97.3 nM"}
{"Structure (SMILES)": "O=C(Cc1ccc(Cl)c(Cl)c1)N1CCN[C@@H]2COC[C@H](N3CCCC3)[C@H]21", "target": "OPRK1", "assay": "β-arrestin recruitment, agonist", "EC50": "10000 nM"}
{"Structure (SMILES)": "CC[C@H](C)[C@@H]1NC(=O)[C@@H]2CCCN2C(=O)[C@H](CC(=O)O)NC(=O)[C@@H](NC(=O)[C@@H](NC(=O)[C@H](CO)NC(=O)[C@@H](N)Cc2ccc(O)cc2)[C@@H](C)O)CSC(=O)[C@H](CCSC)NC1=O", "target": "agrC", "system": "Staphylococcus aureus cells", "EC50": "> 10000 nM"}
{"Structure (SMILES)": "CCN(Cc1ccccc1)C(=O)CCc1nc(CN2CCN(C(=O)Cc3ccc(OC)c(OC)c3)CC2)no1", "target": "Scn10a (Rattus norvegicus, UniProt Q62968)", "assay": "activation V1/2 shift, activator, whole-cell patch clamp", "system": "rat DRG neurons, NaV1.8 current", "EC50": "37.6 ± 2.96 nM"}
{"Structure (SMILES)": "CC(C)[C@H](NC(=O)[C@@H]1CSSC(C)(C)[C@H](NC(=O)[C@@H](N)CC(=O)O)C(=O)N[C@@H](Cc2ccccc2)C(=O)N[C@@H](Cc2c[nH]c3ccccc23)C(=O)N[C@@H](CCCCN)C(=O)N[C@@H](Cc2ccc(O)cc2)C(=O)N1)C(=O)O", "target": "UTS2R (Homo sapiens, UniProt Q9UKP6, W277A)", "assay": "IP1 accumulation, agonist, HTRF", "system": "HEK293T", "conditions": "1 h, 37 °C, W277A mutant, 6.54", "EC50": "2 nM"}
{"Structure (SMILES)": "CC[C@H](C)[C@@H]1NC(=O)[C@H](Cc2ccccc2)NC(=O)C[C@H](CC(=O)O)NC(=O)[C@@H](NC(=O)[C@@H](NC(=O)[C@H](CO)NC(=O)[C@@H](N)Cc2ccc(O)cc2)[C@@H](C)O)CSC(=O)[C@H](CCSC)NC1=O", "target": "agrC", "system": "Staphylococcus aureus cells", "EC50": "~800 nM and 809 nM"}
{"Structure (SMILES)": "CCCC[C@@H]1NC(=O)[C@H](Cc2ccc(O)cc2)NC(=O)[C@@H]2CCCN2C(=O)[C@H](CC(=O)O)NC(=O)[C@H](C)NC(=O)[C@H](Cc2ccccc2)NC(=O)[C@@H]2CSCCC(=O)N3CN(CN(C3)C(=O)CCSC[C@@H](C(=O)N[C@@H](C)C(N)=O)NC1=O)C(=O)CCSC[C@H](NC(C)=O)C(=O)N[C@@H](CC(C)(C)C)C(=O)N1CCC[C@H]1C(=O)N[C@@H](CCC(=O)O)C(=O)N[C@H](CCCCNC(=O)CCc1cn(CCOCCOCCOCCN(CCOCCOCCOCCC(=O)N[C@H]3CSCCC(=O)N4CN5CN(C4)C(=O)CCSC[C@H](NC(=O)[C@@H](CC(=O)O)NC(=O)[C@H](Cc4cccc6ccccc46)NC(=O)[C@@H]4CCCN4C3=O)C(=O)N[C@@H](CCSC)C(=O)N[C@@H](CCCCNC(=N)N)C(=O)N[C@@H](CC(=O)O)C(=O)N[C@@H](Cc3c[nH]c4ccccc34)C(=O)N[C@@H](CO)C(=O)N[C@@H]([C@@H](C)O)C(=O)N3CCC[C@H]3C(=O)N3C[C@H](O)C[C@H]3C(=O)N[C@@H](Cc3c[nH]c4ccccc34)C(=O)N[C@H](C(N)=O)CSCCC5=O)CCOCCOCCOCCn3cc(CCC(=O)NCCCC[C@H]4NC(=O)[C@H](CCC(=O)O)NC(=O)[C@@H]5CCCN5C(=O)[C@H](CC(C)(C)C)NC(=O)[C@@H](NC(C)=O)CSCCC(=O)N5CN6CN(C5)C(=O)CCSC[C@H](NC(=O)[C@H](Cc5ccc(O)cc5)NC(=O)[C@@H]5CCCN5C4=O)C(=O)N[C@@H](Cc4ccccc4)C(=O)N[C@@H](C)C(=O)N[C@@H](CC(=O)O)C(=O)N4CCC[C@H]4C(=O)N[C@@H](Cc4ccc(O)cc4)C(=O)N[C@@H](CCCC)C(=O)N[C@H](C(=O)N[C@@H](C)C(N)=O)CSCCC6=O)nn3)nn1)C(=O)N1CCC[C@H]1C(=O)N[C@@H](Cc1ccc(O)cc1)C(=O)N2", "target": "Tumor necrosis factor receptor superfamily member 9/Nectin-4 (Homo sapiens, UniProt Q07011+Q96NY8)", "assay": "reporter gene, agonist", "system": "HT-1376 coculture with reporter cells", "EC50": "0.22 nM"}
{"Structure (SMILES)": "O=C(O)CCn1c(=O)oc2cc(Cl)c(Cl)cc21", "target": "ADORA2A (Homo sapiens, UniProt P29274)", "assay": "agonist", "EC50": "> 100000 nM"}
{"Structure (SMILES)": "CC(C)C[C@H](NC(=O)[C@H](Cc1ccccc1)NC(=O)CNC(=O)CNC(=O)[C@@H](N)Cc1ccc(O)cc1)C(=O)N[C@@H](CCCNC(=N)N)C(=O)N[C@@H](CCCCN)C(=O)N[C@@H](Cc1ccc(O)cc1)C(=O)N1CCC[C@H]1C(=O)N[C@@H](CCCCN)C(=O)O", "target": "GPR139 (Homo sapiens, UniProt Q6DWJ6)", "assay": "calcium response, agonist, BRET", "system": "HEK293T/17, transfected", "EC50": "44600 ± 13100 nM"}
{"Structure (SMILES)": "CC[C@H](C)[C@@H]1NC(=O)[C@H](Cc2ccccc2)NC(=O)[C@H](CC(=O)O)NC(=O)[C@@H](NC(=O)[C@@H](NC(=O)[C@H](CO)NC(=O)[C@@H](N)Cc2ccc(O)cc2)[C@@H](C)O)CCSC(=O)[C@H](CCSC)NC1=O", "target": "agrC", "system": "Staphylococcus aureus cells", "EC50": "> 10000 nM"}
{"Structure (SMILES)": "CC(C)C[C@H](NC(=O)[C@H](CCC(N)=O)NC(=O)[C@H](CCCNC(=N)N)NC(=O)[C@@H](N)CS)C(=O)N[C@@H](CCCNC(=N)N)C(=O)N[C@@H](CCCCN)C(=O)NCC(=O)N[C@@H](CCCCN)C(=O)N[C@@H](Cc1ccccc1)C(=O)N[C@@H](Cc1ccccc1)C(=O)N[C@@H](CO)C(=O)N[C@@H](CCC(=O)O)C(=O)NCC(=O)NCC(=O)N[C@@H](CO)C(=O)NCC(=O)NCC(=O)N[C@H](C(=O)N[C@@H](CO)C(=O)N[C@@H](Cc1ccccc1)C(=O)N[C@@H](CCC(=O)O)C(=O)N[C@@H](CCC(N)=O)C(=O)N[C@@H](Cc1ccccc1)C(=O)N[C@@H](Cc1c[nH]c2ccccc12)C(=O)N[C@@H](C)C(=O)N[C@@H](Cc1c[nH]c2ccccc12)C(=O)N[C@@H](CC(C)C)C(=O)N[C@@H](Cc1c[nH]c2ccccc12)C(=O)N1CCC[C@H]1C(=O)O)[C@@H](C)O", "target": "PAK4/MDM2 (Homo sapiens, UniProt O96013+Q00987)", "assay": "ternary complex formation, fluorescence polarization", "EC50": "347 nM"}
{"Structure (SMILES)": "O=C(Cc1ccc(Cl)c(Cl)c1)N1CCN(Cc2ccccc2)[C@@H]2CCC[C@H](N3CCCC3)[C@H]21 (relative stereo)", "target": "OPRK1", "EC50": "140 ± 10 nM"}
{"Structure (SMILES)": "CC[C@H](C)[C@H](NC(=O)[C@H](C)NC(=O)CNC(=O)[C@H](Cc1ccccc1)NC(=O)[C@H](CC(N)=O)NC(=O)[C@H](CC(N)=O)NC(=O)[C@H](CO)NC(=O)[C@H](CO)NC(=O)[C@H](Cc1c[nH]cn1)NC(=O)[C@@H](NC(=O)[C@H](CC(C)C)NC(=O)[C@H](Cc1ccccc1)NC(=O)[C@H](CC(N)=O)NC(=O)[C@H](C)NC(=O)[C@H](CC(C)C)NC(=O)[C@H](CCCNC(=N)N)NC(=O)[C@H](CCC(N)=O)NC(=O)[C@@H](NC(=O)[C@H](C)NC(=O)[C@@H]1CSSC[C@H](NC(=O)[C@H](CCCCN)NC(=O)[C@H](CCCNC(=N)N)NC(=O)[C@H](CCCCN)NC(=O)[C@H](CCC(=O)O)NC(=O)[C@@H](NC(=O)[C@H](CCC(N)=O)NC(=O)[C@H](Cc2c[nH]cn2)NC(=O)[C@H](CO)NC(=O)[C@H](CCC(=O)O)NC(=O)[C@@H](NC(=O)[C@@H]2CCCN2C(=O)[C@@H](N)[C@@H](C)O)[C@@H](C)CC)C(C)C)C(=O)N[C@@H](CC(N)=O)C(=O)N[C@@H]([C@@H](C)O)C(=O)N[C@@H](C)C(=O)N[C@@H]([C@@H](C)O)C(=O)N1)[C@@H](C)O)C(C)C)C(=O)N[C@@H](CC(C)C)C(=O)N[C@@H](CO)C(=O)N[C@@H](CO)C(=O)N[C@H](C(=O)N[C@@H](CC(N)=O)C(=O)N[C@H](C(=O)NCC(=O)N[C@@H](CO)C(=O)N[C@@H](CC(N)=O)C(=O)N[C@H](C(=O)N[C@@H](Cc1ccc(O)cc1)C(N)=O)[C@@H](C)O)C(C)C)[C@@H](C)O", "target": "Amylin receptor AMY1, CALCR/RAMP1 (Homo sapiens, UniProt O60894+P30988)", "assay": "cAMP accumulation, agonist", "system": "COS-7, transfected", "EC50": "1.78 nM"}
{"Structure (SMILES)": "CC(C)[C@H](NC(=O)c1ccn(Cc2ccc(F)cc2)n1)C(N)=O", "target": "CNR2 (Homo sapiens, UniProt P34972)", "assay": "calcium signal, agonist", "EC50": "> 10000 nM"}
{"Structure (SMILES)": "CC(C)C[C@H](NC(=O)CNC(=O)[C@H](CCC(N)=O)NC(=O)[C@H](CC(C)C)NC(=O)[C@H](CC(C)C)NC(=O)[C@H](CCCNC(=N)N)NC(=O)[C@H](CCC(N)=O)NC(=O)[C@H](CC(C)C)NC(=O)[C@H](CCCNC(=N)N)NC(=O)[C@H](C)NC(=O)[C@H](CO)NC(=O)[C@H](CC(=O)O)NC(=O)[C@H](CCC(N)=O)NC(=O)[C@H](CC(C)C)NC(=O)[C@H](CCCNC(=N)N)NC(=O)[C@H](CO)NC(=O)[C@H](Cc1ccc(O)cc1)NC(=O)[C@H](CCC(=O)O)NC(=O)[C@H](CO)NC(=O)[C@@H](NC(=O)[C@H](Cc1ccccc1)NC(=O)[C@@H](NC(=O)[C@H](Cc1ccc(C(=O)c2ccccc2)cc1)NC(=O)[C@H](CC(=O)O)NC(=O)[C@H](CO)NC(=O)[C@@H](N)Cc1c[nH]cn1)[C@@H](C)O)[C@@H](C)O)C(=O)N[C@H](C(N)=O)C(C)C", "target": "Sctr (Rattus norvegicus, UniProt P23811)", "assay": "agonist", "EC50": "> 1000 nM"}
{"Structure (SMILES)": "Cc1cc(C(c2ccc(Cl)cc2)c2ccc(Cl)cc2)sc1C(=O)N[C@@H](CCCNC(=N)N)C(=O)O", "target": "C3AR1 (Homo sapiens, UniProt Q16581)", "assay": "GoA dissociation, agonist, NanoBiT G-protein", "EC50": "2.88 nM"}
{"Structure (SMILES)": "C[C@@]12CC[C@@H]3[C@H](CC[C@@H]4C[C@@H](O)CC[C@]43C)[C@H]1CC(=O)C2", "target": "GABA-A receptor; GABA-A site (alpha1/beta2 interface) (Homo sapiens, UniProt P14867+P47870)", "EC50": "4540 nM"}
{"note": "Some of these lines once more:"}
{"Structure (SMILES)": "O=C(O)CCn1c(=O)oc2cc(Cl)c(Cl)cc21", "target": "ADORA2A (Homo sapiens, UniProt P29274)", "assay": "agonist", "EC50": "> 100000 nM"}
{"Structure (SMILES)": "CC(C)C[C@H](NC(=O)[C@H](Cc1ccccc1)NC(=O)CNC(=O)CNC(=O)[C@@H](N)Cc1ccc(O)cc1)C(=O)N[C@@H](CCCNC(=N)N)C(=O)N[C@@H](CCCCN)C(=O)N[C@@H](Cc1ccc(O)cc1)C(=O)N1CCC[C@H]1C(=O)N[C@@H](CCCCN)C(=O)O", "target": "GPR139 (Homo sapiens, UniProt Q6DWJ6)", "assay": "calcium response, agonist, BRET", "system": "HEK293T/17, transfected", "EC50": "44600 ± 13100 nM"}
